Results of several laboratories.
Numbered parts are unrelated; each lists some results of a single study.

Sample 1
Target: POU, POU domain (Salpingoeca helianthica)
Method: Spec-seq
Form: double-stranded DNA, one strand shown
Matrix: in vitro
Concentration: not given
Notes: whole probe, mean of replicates
Baseline: not given
Reading: lower = stronger binding
All sequences stand within: GAGTCGTCTCGTCAGCAC … CCGTAGAGCACTCAGGTC
Target sequence (chain): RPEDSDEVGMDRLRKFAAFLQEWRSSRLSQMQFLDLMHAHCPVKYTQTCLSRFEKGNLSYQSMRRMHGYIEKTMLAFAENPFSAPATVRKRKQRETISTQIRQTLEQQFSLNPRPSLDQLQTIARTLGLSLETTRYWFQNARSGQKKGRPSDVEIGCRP
`ATTCCTAT` — result for “relative binding energy”: 1.11 ln ratio.
`CAGATAAT` — result for “relative binding energy”: 0.381 ln ratio.
Under “relative binding energy”, `ATGTTCAT` is recorded as 1.04 ln ratio.
For `ACTTTAAT`, “relative binding energy” read 0.242 ln ratio.
Under “relative binding energy”, `ATGCCCCG` is recorded as 1.3 ln ratio.
For `ATGCCAAG`, “relative binding energy” read 1.09 ln ratio.

Sample 2
Target: Histone acetyltransferase KAT6A, winged helix 1, GST fusion (KAT6A, Homo sapiens, UniProt Q92794, residues 1-85)
Method: protein binding microarray
Form: double-stranded DNA, one strand shown
Matrix: in vitro
Concentration: not given
Notes: 8-mer, flanks averaged, mean of 2 arrays, mostly near background
Baseline: not given
Reading: higher = stronger binding
Residues (chain): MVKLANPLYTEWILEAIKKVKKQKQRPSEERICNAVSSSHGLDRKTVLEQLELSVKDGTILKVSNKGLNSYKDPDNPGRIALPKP
The E-score of `CTCTGAGA` is reported as -0.118.
The E-score of `AGGGAATC` is reported as -0.0957.
For `ACTTTTCG`, the E-score was -0.0483.
The E-score of `CGTGATAA` is reported as 0.0865.
`CGGTCCTC` gave an E-score of 0.203.

Sample 3
Target: RNA binding protein fox-1 homolog 2, RRM domain, GST-SBP tag (RBFOX2, Homo sapiens, UniProt O43251-10, residues 100-194)
Method: RNA Bind-n-Seq
Form: RNA
Matrix: in vitro
Concentration: 365 nM
Notes: natural RNA segment, single round, ends assumed
Baseline: no-protein control
Reading: higher = stronger binding
Residues (chain): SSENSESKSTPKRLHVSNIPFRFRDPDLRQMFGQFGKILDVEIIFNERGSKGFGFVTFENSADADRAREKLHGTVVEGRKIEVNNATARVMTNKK
For `GGGAGUUCUACAGUCCGACGAUCUUUGGGAAGGUGGGUGAGGCUGGGCAGGGCCUGGCGGAGGUGGAGUGGCCACUGGCACUUGCCUGCUGCUUGGAGUGCCCCAAGGAGGUGGCUGUUAACCACCCGCCCCGUGGAAUUCUCGGGUGCCAA`, “RBNS enrichment (R)” read 1.09.
For `GGGAGUUCUACAGUCCGACGAUCACUACUAUUCAAGUAGAGAUUUGCCCCAACACAUUAACUUUUUCCUUGGAGAUUUAUAUGGUCCUGCAUUUUGUCCUGUGCUCACAAUGUGAAGUGUCUUCUGUAUUCAAUGGAAUUCUCGGGUGCCAA`, “RBNS enrichment (R)” read 2.48.
`GGGAGUUCUACAGUCCGACGAUCACUACUUUGCACACUUCCUCCAUGCUCUCACUUUGAAGGAAGCCUGGAUGAGGCUAGUGACUCUGUGGGUGUCCUGAACAGUGAAGUUCACUGUCUCCAUGUGAUUGUUAUGGAAUUCUCGGGUGCCAA` — result for “RBNS enrichment (R)”: 0.321.
Under “RBNS enrichment (R)”, `GGGAGUUCUACAGUCCGACGAUCCAUUAACAUGGUAAAGAUUGUAUGAAAUACCUGUUUUUCAAAAAAAUAAAAAUAAAGGUUCAAGUCUAAAAAGAUAACAGUAUCUAAGCUCUGAAUUUAUUGAAGUAGAUUGGAAUUCUCGGGUGCCAA` is recorded as 0.715.

Single results of other studies
`PhoQ, residues 284 288 289 292 302 303 GTAMQF` has a fold induction of 0.475 (PhoP, residues 12 14 15 18 19 NIMAP (Escherichia coli, UniProt P23836); Sort-seq, refers to: YFP reporter; E. coli; PhoQ-PhoP variant library, together with: 10 µM Mg2+; baseline: high Mg2+ state, higher = stronger signaling).

For quick reference, copied from above (sample 3):
For `GGGAGUUCUACAGUCCGACGAUCUUUGGGAAGGUGGGUGAGGCUGGGCAGGGCCUGGCGGAGGUGGAGUGGCCACUGGCACUUGCCUGCUGCUUGGAGUGCCCCAAGGAGGUGGCUGUUAACCACCCGCCCCGUGGAAUUCUCGGGUGCCAA`, “RBNS enrichment (R)” read 1.09.
